{"data": "Published values of several laboratories", "note": "Each line is one published result; not all experiments were run side by side. Numbers after ± are the reported error."}
{"SMILES": "COc1cc2c(Oc3ccc4[nH]c(C)cc4c3F)ccnc2cc1OCC1(N)CC1", "system": "paediatric refractory sarcoma patients", "conditions": "12 mg", "measurement": "sinus bradycardia incidence", "result": "0%"}
{"SMILES": "O=C(c1ccc(F)c(F)c1Nc1ccc(I)cc1F)N1CC(O)([C@@H]2CCCCN2)C1", "system": "human patients", "conditions": "oral, 1 mg/kg, age ≥18 years", "measurement": "treatment-related AE causing withdrawal", "result": "0%"}
{"SMILES": "O=C(O)CCCOc1ccc(F)cc1-c1cc(-c2ccccc2C(F)(F)F)n(-c2ccccc2)n1", "test": "refers to: Glu", "system": "Crl:CD(SD) rats, female, blood", "conditions": "iv, 25 µg/kg, 1 day", "measurement": "blood chemistry", "result": "95.7 ± 13.5 mg/dL"}
{"SMILES": "Cc1cccc(Cn2nc(C3CC3)c3c(NC(=O)c4cnc5cc(OCCN6CCN(C)CC6)ccn45)cccc32)n1", "test": "CTCAE v4.03, refers to: decreased appetite", "system": "PD-1/PD-L1 inhibitor-refractory patients", "conditions": "oral, dose not given, with: pembrolizumab IV every 3 weeks", "measurement": "all-cause adverse events", "result": "15.8%"}
{"SMILES": "CC(C)[C@H](C(=O)O[C@H](C#N)c1cccc(Oc2ccccc2)c1)c1ccc(Cl)cc1", "test": "refers to: CYP3A4", "system": "human, age 6 months", "measurement": "enzyme contribution to clearance", "result": "1.63%"}
{"SMILES": "C[C@]1(CO)Cc2ncn(-c3ccc(C#N)c(Cl)c3)c2C(=O)O1", "system": "human", "conditions": "5 mg single dose", "measurement": "subjects with drug-related orthostatic hypotension", "result": "0%"}
{"SMILES": "CC(=O)c1c(C)c2cnc(Nc3ccc(C4CCN(CCS(C)(=O)=O)CC4)cn3)nc2n(C2CCCC2)c1=O", "system": "human, plasma", "conditions": "oral, 50 mg twice daily, day 21, multiple doses, with: letrozole", "measurement": "AUC(0-t)", "result": "550 ng·h/mL"}
{"SMILES": "CC(C)n1c(C2CCNCC2)nc2c([N+](=O)[O-])c(Br)c(Br)cc21", "system": "patients with AML", "conditions": "125 mg", "measurement": "AE leading to interruption", "result": "2%"}
{"SMILES": "O=C1Nc2cc3[nH]nc(-c4ccncc4)c3cc2CN1Cc1ccccc1", "test": "CTCAE v4.03", "system": "advanced solid tumour patients", "conditions": "intravenous, 4.8 mg/kg", "measurement": "patients with diarrhoea", "result": "33%"}
{"SMILES": "O=S(=O)(Nc1ccccc1)c1ccc(NC(=S)Nc2ccccc2)cc1", "system": "mouse, male, blood", "conditions": "oral, 20 mg/kg daily, 14 days", "measurement": "mean corpuscular volume", "result": "47.5 fL"}
{"SMILES": "COc1ccc(-c2c(-c3ccc(C#N)c(F)c3)nc(N3CCC(N)CC3)n(C)c2=O)cc1F", "test": "refers to: Abdominal pain", "system": "human patients", "conditions": "oral, dose not given, dose escalation, NG", "measurement": "serious adverse event incidence", "result": "2%"}
{"SMILES": "Cc1ccc(F)c2cc(C(=O)N[C@@H]3CCC[C@H](N4CC[C@H](N(C)S(C)(=O)=O)C4)C3)[nH]c12", "system": "CD1 mouse, plasma", "conditions": "oral, 100 mg/kg, 0.5 h", "measurement": "plasma concentration", "result": "3170 ng/mL"}
{"SMILES": "NC(=O)[C@H]1CCN(c2ncnc(N)c2F)C[C@@H]1N1CCC[C@@H](Nc2cc(Cl)cc(C(F)(F)F)c2)C1=O", "system": "B-cell malignancy patients", "conditions": "oral, 246 mg twice daily, dose", "measurement": "grade ≥3 hyponatraemia", "result": "0%"}
{"SMILES": "COc1cc(C(=O)NC2CCN(C)CC2)c(F)cc1Nc1ncc(C(F)(F)F)c(Oc2cccc3c2C(=O)N(C)C3)n1", "system": "human patients, urine", "conditions": "oral, 25 mg single dose, geometric mean", "scale": "reference: dose", "measurement": "fraction excreted in urine (0-24 h)", "result": "3.06%"}
{"SMILES": "C[C@@H]1NC(=O)[C@H](CCCCNC(=O)CO/N=C/C(=O)NCCCC[C@@H]2NC(=O)[C@@H](Cc3ccccc3)NC(=O)[C@H](CC(=O)O)NC(=O)CNC(=O)[C@H](CCCNC(=N)N)NC2=O)NC(=O)CNC(=O)[C@@H]2CCCN2C(=O)[C@H](CCCCNC(=O)CO/N=C/C(=O)NCCCC[C@@H]2NC(=O)[C@@H](Cc3ccccc3)NC(=O)[C@H](CC(=O)O)NC(=O)CNC(=O)[C@H](CCCNC(=N)N)NC2=O)NC(=O)[C@H](CCCCNC(=O)[C@H](CCCCN)NC(=O)[C@H](Cc2ccccc2)NC(=O)CNC(=O)CN2CCCNCCNCCCNCC2)NC(=O)[C@H](CCCCNC(=O)CO/N=C/C(=O)NCCCC[C@@H]2NC(=O)[C@@H](Cc3ccccc3)NC(=O)[C@H](CC(=O)O)NC(=O)CNC(=O)[C@H](CCCNC(=N)N)NC2=O)NC(=O)CNC(=O)[C@@H]2CCCN2C(=O)[C@H](CCCCNC(=O)CO/N=C/C(=O)NCCCC[C@@H]2NC(=O)[C@@H](Cc3ccccc3)NC(=O)[C@H](CC(=O)O)NC(=O)CNC(=O)[C@H](CCCNC(=N)N)NC2=O)NC1=O [copper-64 labelled]", "system": "normal mice, liver", "conditions": "intravenous, 0.74 MBq, 24 h post-injection", "measurement": "tissue uptake", "result": "27.1 ± 2.22 %ID/g"}
{"SMILES": "CCN(CCO)CCCC(C)Nc1ccnc2cc(Cl)ccc12 (stereo not drawn)", "system": "newly diagnosed glioblastoma patients", "conditions": "oral, 800 mg/dose, grade 3, with: radiotherapy plus temozolomide", "measurement": "febrile neutropenia patients", "result": "33%"}
{"SMILES": "CC(C)(O)c1cc(Nc2cc(Oc3cn(C4CC4)nc3C3CCOCC3)ccn2)ccn1", "test": "Vomiting", "system": "patients with advanced cancer, grade 4 glioma expansion", "conditions": "oral, 50 mg twice daily, grade ≥3, 2 weeks on/2 weeks off schedule", "measurement": "treatment-related adverse events", "result": "5%"}
{"SMILES": "O=C(Nc1ccccc1)C1CCN(C(=O)Oc2cccnc2)CC1", "system": "healthy women", "conditions": "oral, 100 mg, 9 days", "measurement": "adverse event Rash", "result": "0%"}
{"SMILES": "CC(C)(c1ccccc1)c1cc(-n2nc3ccccc3n2)c(O)c(C(C)(C)c2ccccc2)c1", "system": "human aged 11-16 years", "conditions": "concentration not given, sunscreen, 95th percentile", "measurement": "daily dermal exposure dose", "result": "1.43 ng/kg/day"}
{"SMILES": "CCCC(CCC)NC(=O)c1ccc2c(c1)OCO2", "system": "Swiss albino CD-1 mice, male, bone marrow", "conditions": "intraperitoneal, 350 mg/kg, 24 h", "measurement": "PCE/NCE ratio", "result": 0.8}
{"SMILES": "Cc1ccccc1C(=O)NN=Cc1ccc(O)c(Br)c1", "system": "C3H/HeN mouse IN model, plasma", "conditions": "intravenous, 1.6 mg/kg", "measurement": "C0", "result": "610 ng/mL"}
{"SMILES": "Cc1cn([C@H]2O[C@@H](CO[P@@](=O)(N[C@@H](C)C(=O)OC(C)C)Oc3ccccc3)[C@H](O)[C@H]2F)c(=O)[nH]c1=O", "test": "refers to: bone pain", "system": "human", "conditions": "10 mg", "measurement": "patients with TEAE", "result": "0%"}
{"SMILES": "C[C@@H](NC(=O)N1C(=O)[C@H](Cc2ccnc(N)c2)[C@H]1C(=O)O)C1CCCCC1", "system": "healthy adult Chinese volunteers", "conditions": "continuous intravenous infusion, 2.25 mg/kg/h, 5-day infusion, CTCAE 5.0 grading", "measurement": "incidence of hypokalemia", "result": "0%"}
{"SMILES": "O=c1ccc2ncc(=O)n3c2n1C[C@H]3CN1CCC(NCc2cc3c(cn2)OCCC3)CC1", "system": "healthy human volunteers", "conditions": "oral, 1500 mg, rifampicin cohort, with: rifampicin 600 mg", "measurement": "incidence of burning sensation", "result": "0%"}
{"SMILES": "CNC(=O)[C@@H](NC(=O)c1cc(OCC2(C)COC2)c(C2CC2)cn1)C(C)(C)C", "system": "C57BL/6 mice", "conditions": "oral, dose not given", "measurement": "oral bioavailability", "result": "31%"}
{"SMILES": "CCc1ccc(CC/C=C/c2ccc3c(c2)C(=O)CC3)cc1", "system": "Sprague-Dawley rat, male", "conditions": "oral, 450 mg/kg/day, 14 days", "measurement": "Eosinophil percentage", "result": "0.57%"}
{"SMILES": "O=[N+]([O-])c1ccc2c(c1)S(=O)(=O)C=C2", "system": "male C57BL/6 mice, blood", "conditions": "intraperitoneal, 10 mg/kg, day 8, group average", "measurement": "plateletcrit", "result": "5.1 mL/L"}
{"SMILES": "CO[C@H]1C[C@@H]2CC[C@@H](C)[C@@](O)(O2)C(=O)C(=O)N2CCCC[C@H]2C(=O)O[C@H]([C@H](C)C[C@@H]2CC[C@@H](OC(=O)NCCOCCOCCOCCOCCOCCOCCOCCOCCC(=O)N3CCc4cc(Cn5nc(-c6ccc7oc(N)nc7c6)c6c(N)ncnc65)ccc4C3)[C@H](OC)C2)C[C@@H](O)[C@H](C)/C=C(\\C)[C@@H](O)[C@@H](OC)C(=O)[C@H](C)C[C@H](C)/C=C/C=C/C=C/1C", "test": "dose-escalation trial", "system": "patients with advanced solid tumours", "conditions": "intravenous, 1.6 mg/3 mg weekly, grade ≥3", "measurement": "abdominal pain TEAE incidence", "result": "0%"}
{"SMILES": "C=CCNc1c(O)cc2c(O)c1C[C@@H](C)C[C@H](OC)[C@H](O)[C@@H](C)/C=C(\\C)[C@H](OC(N)=O)[C@@H](OC)/C=C\\C=C(/C)C(=O)N2", "system": "unresectable or metastatic STS, GIST, other", "conditions": "intravenous, 150 mg/m^2", "measurement": "patients with constipation TEAE", "result": "33%"}
{"SMILES": "CN[C@H]1CC[C@@H](c2ccc(Cl)c(Cl)c2)c2ccccc21", "system": "CD-1 mouse, male, plasma", "conditions": "intraperitoneal, 3 mg/kg", "measurement": "AUC(0-inf)", "result": "243 ng·h/mL"}
{"SMILES": "COc1ncccc1-c1cnn2ccc(N3CCN(C(=O)OC(C)C)CC3)nc12", "system": "rat, CCI cold allodynia model, brain", "conditions": "oral, 3 mg/kg, 240 min", "measurement": "drug concentration", "result": "1000 nM"}
{"SMILES": "CC(C)[C@@H]1NC(=O)CNC(=O)[C@H](CC(N)=O)NC(=O)[C@H](CCCNC(=N)N)NC(=O)[C@H](Cc2ccc(O)cc2)NC(=O)[C@H](C(C)C)NC(=O)[C@@H](NC(=O)[C@@H](NC(=O)[C@H](CC(N)=O)NC(=O)[C@H](Cc2c[nH]c3ccccc23)NC(=O)[C@H](C)NC(=O)[C@H](Cc2ccccc2)NC(=O)CN)C(C)C)CSSC[C@@H](C(=O)N[C@@H](Cc2cnc[nH]2)C(=O)N[C@@H](CCCNC(=N)N)C(=O)N[C@@H](CCCNC(=N)N)C(=O)N[C@@H](C)C(=O)N[C@@H](CC(N)=O)C(N)=O)NC(=O)[C@H](C(C)C)NC(=O)[C@H](CCCNC(=N)N)NC1=O", "system": "ICR mice, blood", "conditions": "intraductal mammary, 10 mg/kg, day 5", "measurement": "plateletcrit", "result": "0.02%"}
{"SMILES": "CN1CC[C@@H](c2c(O)cc(O)c3c(=O)cc(-c4ccc(C(F)(F)F)cc4Cl)oc23)[C@@H]1CO", "test": "refers to: Anemia", "system": "B-cell malignancies", "conditions": "oral, 100 mg, intermittent dosing", "measurement": "patients with adverse event", "result": "0%"}
{"SMILES": "CCC[C@@](N)(CO)CCc1ccc(OCCCCCC(C)C)cc1", "system": "hound dogs, male", "conditions": "intravenous, 1.0 mg/kg, median", "measurement": "Tmax", "result": "2.5 h"}
{"SMILES": "CC(C)C[C@H](NC(=O)[C@H](CCCCN)NC(=O)OCC1c2ccccc2-c2ccccc21)C(=O)N[C@H](C(=O)N[C@@H](Cc1ccccc1)C(=O)N[C@@H](Cc1ccccc1)C(=O)N[C@@H](CCCCN)C(=O)NCC(=O)N[C@@H](Cc1ccccc1)C(=O)N[C@@H](C)C(=O)N[C@@H](Cc1c[nH]c2ccccc12)C(=O)N[C@@H](CC(N)=O)C(=O)N[C@H](C(=O)N[C@H]1CSSC[C@@H](C(=O)N[C@@H](Cc2c[nH]cn2)C(=O)N[C@@H](CCCNC(=N)N)C(=O)N[C@@H](CCCNC(=N)N)C(=O)N[C@@H](C)C(=O)N[C@@H](CC(N)=O)C(N)=O)NC(=O)[C@H](C(C)C)NC(=O)[C@H](CCCNC(=N)N)NC(=O)[C@H](C(C)C)NC(=O)CNC(=O)[C@H](CC(N)=O)NC(=O)[C@H](CCCNC(=N)N)NC(=O)[C@H](Cc2ccc(O)cc2)NC(=O)[C@H](C(C)C)NC1=O)C(C)C)C(C)C", "system": "ICR mice, blood", "conditions": "intraductal mammary, 5 mg/kg, day 5", "measurement": "neutrophils", "result": "18.7 ± 1%"}
{"SMILES": "Cc1cc(C)c(CNC(=O)c2cc(Cl)c3c(c2C)O[C@@](C)([C@H]2CC[C@H](N(C)C)CC2)O3)c(=O)[nH]1", "system": "human, relapsed/refractory NHL", "conditions": "concentration not given, treatment-related TEAEs, grade 5", "measurement": "Hypercalcaemia incidence", "result": "0%"}
{"note": "A few entries again:"}
{"SMILES": "CNC(=O)[C@@H](NC(=O)c1cc(OCC2(C)COC2)c(C2CC2)cn1)C(C)(C)C", "system": "C57BL/6 mice", "conditions": "oral, dose not given", "measurement": "oral bioavailability", "result": "31%"}
{"SMILES": "CC(C)(O)c1cc(Nc2cc(Oc3cn(C4CC4)nc3C3CCOCC3)ccn2)ccn1", "test": "Vomiting", "system": "patients with advanced cancer, grade 4 glioma expansion", "conditions": "oral, 50 mg twice daily, grade ≥3, 2 weeks on/2 weeks off schedule", "measurement": "treatment-related adverse events", "result": "5%"}
